# Measurements of several laboratories.
# A part holds a random share of what one study measured.

# Series 1
# Target: Probable WRKY transcription factor 33, N-terminal DNA-binding domain (WRKY33, Arabidopsis thaliana, UniProt Q8S8P5, residues 169-264)
# Technique: DNA-protein interaction ELISA
# Form: double-stranded DNA, one strand shown
# Medium: in vitro, bacterial lysate
# Tested at: not given
# Notes: whole dsDNA probe, crude lysate protein
# Reference: highest signal in screen
# Reading: higher = stronger binding
# Construct (chain): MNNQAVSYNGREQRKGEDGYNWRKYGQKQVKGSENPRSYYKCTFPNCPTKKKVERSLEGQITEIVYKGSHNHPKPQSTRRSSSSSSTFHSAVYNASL
Sequence,relative absorbance
AAAAAACGTTGAACCTGGGCCTCAACAAAA,26.3 % of maximum
AAAAAAAAATTTCGAGCCTCGGCGTAAAAA,14.6 % of maximum
AAAAAATTCTTTTTTCTTCAAGGTCTAAAA,29.9 % of maximum
AAAAAAGGCTTCCACTTTGAGTTTGCAAAA,26.4 % of maximum
AAAAAATTCCCAGCGTATCCGACCCGAAAA,21.4 % of maximum
AAAAAACTACCTCTACTCTAGCCTTAAAAA,17.5 % of maximum
AAAAAAGCCGTGGGTGATGGTCACAGAAAA,19.7 % of maximum
AAAAAACCTTACCTCATCCCTATCCCAAAA,21.8 % of maximum
AAAAAATATGCTACTCCACCTTGATGAAAA,22 % of maximum
AAAAAACTTCTAGTTTATGCTTCCGTAAAA,23.5 % of maximum
AAAAAAACCTCTTTATTCTCGATTGTAAAA,22.6 % of maximum
AAAAAATTCTTAGTTAGATTCACCTCAAAA,23.7 % of maximum
AAAAAAGCGCGAATTCTAGAACTATAAAAA,28.8 % of maximum
AAAAAATGGAAAGACCTATACCGGTCAAAA,26.4 % of maximum
AAAAAAACCCTGTGTCGGCCGATAAAAAA,20.8 % of maximum
AAAAAATCCCCCCGTTTCACTCTTGCAAAA,24.8 % of maximum
AAAAAATTTATACTTGATCCTGGCTTAAAA,27.5 % of maximum

# Series 2
# Target: Hepatocyte nuclear factor 3-beta, forkhead domain (FOXA2, Homo sapiens, UniProt Q9Y261, residues 142-269)
# Technique: protein-binding microarray
# Form: double-stranded DNA, one strand shown
# Medium: in vitro
# Tested at: not given
# Notes: k-mer, scored over probes, only values ≥0.25
# Reading: higher = stronger binding
# Target sequence (chain): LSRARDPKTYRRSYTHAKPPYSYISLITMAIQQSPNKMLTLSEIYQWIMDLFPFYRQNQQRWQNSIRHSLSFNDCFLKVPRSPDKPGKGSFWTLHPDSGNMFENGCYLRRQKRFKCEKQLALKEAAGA
Sequence,E-score
GCTATTCA,0.268
ATAATCAT,0.34
ATCAATAC,0.287
AATATCAG,0.3
CCATATAG,0.271
CTGTATTA,0.275
ATGCACAT,0.277
TGCATACA,0.397
ACAAATAA,0.372
AACTATAG,0.259
ATAACACA,0.409
ATGTTGAC,0.347
TTATTCAA,0.307
CAAATAAA,0.255
TATATGCA,0.298
AATGTATA,0.317

# Series 3
# Target: RNA binding protein fox-1 homolog 2, RRM domain, GST-SBP tag (RBFOX2, Homo sapiens, UniProt O43251-10, residues 100-194)
# Technique: RNA Bind-n-Seq
# Form: RNA
# Medium: in vitro
# Tested at: 365 nM
# Notes: natural RNA segment, single round, ends assumed
# Reference: no-protein control
# Reading: higher = stronger binding
# Construct (chain): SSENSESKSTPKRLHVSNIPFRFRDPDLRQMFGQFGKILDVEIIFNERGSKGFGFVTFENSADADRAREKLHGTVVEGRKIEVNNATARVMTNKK
Sequence,RBNS enrichment (R)
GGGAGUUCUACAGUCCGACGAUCCUACAUACCUUUCCCAUCACACAUGAAAAAAGAAAAAAACAAAUCUGCUCAGAGUGCCUCUGGUUUCUUUUCAAAUUGUGGGGGGAAGGAUUAAAAACUUCAAAUGAUGGUGGAAUUCUCGGGUGCCAA,0.451
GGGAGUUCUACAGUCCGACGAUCUGCUGGCGGGCUGAGGGUGACAGUCACGUCCGUUUCUUCUGUAUUAGAAGGCUGCGGUGAUUCAAUUAGAUUGUCCCACUGCUGAGACCUGUAGGGCAGCUUCUAACAUGUGGAAUUCUCGGGUGCCAA,0.287
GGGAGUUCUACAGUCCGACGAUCUUACUGCAUUUCUGCUCUUGGUUCUAGCUGUGUGAACUCUAACUUCUUUCCUGAUGGGGAUCUCUGUGUUCUUGAGCUCUGAUUAUGUAAUGAAGGCUGACACAGUCCCCUGGAAUUCUCGGGUGCCAA,0.429
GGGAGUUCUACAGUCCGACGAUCCCAGGCCCAGCUGCCUUUGGCUUUGAUCUCAAGUCAGGCUGAAGGCAGCGAAGCCUCGGGGCCCAAGCCCCUCCCCAGCCCCCUCUCCCGGACAGACGCCUUGCCCAGGGUGGAAUUCUCGGGUGCCAA,0.202
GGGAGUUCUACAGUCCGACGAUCGGUCUAGGAAGCCGAAGCUGAGUGCGCACUAGAGCUGCUAGCAGGCAGGCCAGAGGGUCAGCUUGUGUUUUAUUUUCUGAUUUCUCCUGCAUGCUUUCUGGAGAUGAGGAUGGAAUUCUCGGGUGCCAA,22
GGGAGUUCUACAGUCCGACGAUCAAAUCGCUGGUGCUCACAAUUGUCUCUUGUAAUGUAUGUGAUUUUUUUAAGGAGAAAAAGAAACUUAUUUAAGAUUCUGAAGGUGCUACUAUUUUCUGUUGCCACAGGCUUGGAAUUCUCGGGUGCCAA,0.853
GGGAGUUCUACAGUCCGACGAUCGUCAGUAUGCCCCAAAGCUUGCUCUUUUGUGCUCCCUUUUGAAUAACUUUCUAUCCAGAAAAAGAGAUUAUUUGGGACUUGAGAUUUGCAGUGAUACCAACUUAUAGCAAUGGAAUUCUCGGGUGCCAA,0.558
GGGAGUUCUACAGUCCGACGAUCAGAACAACCCACCCGUCGCCCUUCUCCGUAUGCUGCCUGCGCCAGAAGAGCUUUGCUGGGCCCUGGCUUCCCUGCCCUCGCCUUCACCUCUGUCAGCAGGUGGCCUUGCCUGGAAUUCUCGGGUGCCAA,0.449
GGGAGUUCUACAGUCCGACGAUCGAUCCCUGCUGUUCCCUAAUCCCACCCCCUGCCCUGAGACAGUGAAUGUAGUCCGUGAAGGGAGUGCCUCUCUGGGACCCCCUGUGUUGUUACAGGCUGUGCAGUGCAACUGGAAUUCUCGGGUGCCAA,0.615
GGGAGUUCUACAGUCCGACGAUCGGAUUUAGUUUCCUUUUUCCUUUUUUAAAUAUUGGUUUUAAAAAGGGAGCCUGAUGCCCCCAAUUGGUAGUGAGAAUUUGGGGACCUCCCCAACCCCCGACCCCACAAACUGGAAUUCUCGGGUGCCAA,0.513
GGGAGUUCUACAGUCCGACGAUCACCUAGGUCUUGUCUUUCAACUUGUUGGUAGAAGUUACAAAUUAUUCUCAAAACUGUCUGUCUCAUCAUGAGGAAAAAGGAACUUUCUUUUGUUCCUAUUCAGGACUUGAUGGAAUUCUCGGGUGCCAA,0.279
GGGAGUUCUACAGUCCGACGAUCAAUUAACAAAUCUCCCUUCACUCACCACUAUCCUCAUUCUUGCAGUUGUCAAGGUGUAAGCCUCACUGUAAGUUACAAAGCUACCACUCCCCUCUUUAAGAACACAUAGCUGGAAUUCUCGGGUGCCAA,0.804

# Series 4
# Target: Ras GTPase-activating protein-binding protein 1, full length (G3BP1, Homo sapiens, UniProt Q13283)
# Chain of UniProt Q13283 (whole entry, looked up): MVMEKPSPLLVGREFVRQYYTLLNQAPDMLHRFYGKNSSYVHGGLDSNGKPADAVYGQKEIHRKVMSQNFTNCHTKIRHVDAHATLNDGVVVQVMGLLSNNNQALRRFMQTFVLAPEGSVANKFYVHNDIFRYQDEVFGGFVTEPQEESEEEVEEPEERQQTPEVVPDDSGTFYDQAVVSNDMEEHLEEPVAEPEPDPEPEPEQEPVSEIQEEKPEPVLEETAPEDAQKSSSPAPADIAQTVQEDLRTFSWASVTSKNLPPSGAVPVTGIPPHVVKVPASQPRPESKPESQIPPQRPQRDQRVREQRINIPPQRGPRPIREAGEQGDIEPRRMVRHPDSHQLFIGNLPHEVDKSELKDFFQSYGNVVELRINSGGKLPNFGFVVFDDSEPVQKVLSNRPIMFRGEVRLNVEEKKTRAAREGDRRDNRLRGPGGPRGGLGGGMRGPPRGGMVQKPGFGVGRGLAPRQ
# Technique: RNA Bind-n-Seq
# Form: RNA
# Medium: in vitro
# Tested at: 200 nM
# Notes: whole 134-nt RNA, ends assumed
# With: 150 mM KCl
# Reference: input library
# Reading: higher = stronger binding
Sequence,log2 enrichment
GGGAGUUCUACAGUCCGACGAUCUCCUGUGCUACACAUCGUAUGUACCGAAUCGGGUUUGGGAAAAAAAGGGUUUUUUUGGGAAAGUAUUAUGUUACGCCGUUCGGAUCUGCAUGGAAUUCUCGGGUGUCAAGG,-0.236
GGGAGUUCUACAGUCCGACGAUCUCCUGUGCUACACAUCGUAUGUACCGAAUCGGGAAAAAAGGGAAAAAAGGAAAAAAGGGGAAAGUAUUAUGUUACGCCGUUCGGAUCUGCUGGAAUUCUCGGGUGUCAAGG,-0.501
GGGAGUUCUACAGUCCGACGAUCUCCUGUGCUACACAUCGUAUGUACCGAAUCGGGGUUUUUGGGGAAAAAAAGGGGAGGGGAAAGUAUUAUGUUACGCCGUUCGGAUCUGCAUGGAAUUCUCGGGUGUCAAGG,0.71
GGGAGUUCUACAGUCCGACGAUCGCAGGAAGUAAAAACAAAUGGAAAUGCUUCGGAUAGUGGCAGGGGUGGGGGUUGCUAAGGAAAGGGUGGGAUAGGAGUGGGUAAAGAGUUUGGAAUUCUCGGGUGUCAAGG,0.823
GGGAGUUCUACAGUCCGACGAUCGCAGGAAGUCAAAACAAAUGGAAAUGCUUCGGAUAGUGGCAGGGGUGGGGGUUGCUAAGGAAAGGGUGGGAUGGGAGUGGGUAAAGAGUUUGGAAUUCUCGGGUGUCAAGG,0.856
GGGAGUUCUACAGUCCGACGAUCCCUCAAGUCCUGUGCUACACAUCGUAUGUACCGAAUCGGGCGGGCGGGGCGGAAAGUAUUAUGUUACGCCGUUCGGAUCUGCACUUCCAGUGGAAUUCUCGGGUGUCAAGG,0.933
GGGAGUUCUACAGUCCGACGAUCUAACUUUAGAGGACGAUCUGAUGGAUAUGGCAGUGGACGUGGAUUUGGGGAUGGCUAUAAUGGGUAUGGAGGAGGACCUGGAGGUGGCAAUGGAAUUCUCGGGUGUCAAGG,0.671
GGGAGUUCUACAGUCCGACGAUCUGGCAGGAAAGAGUUCCUAGAGAGAGAAGACAAAGACAGUCUGUGUUGCAAAAGAAGCCCAAGGCUGAAGAUUUAAGAACUGAAUGUGCAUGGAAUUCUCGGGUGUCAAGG,-0.66
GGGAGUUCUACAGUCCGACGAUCCCUCAAGUCCUGUGCUACACAUCGUAUGUACCGAAUCGGCGGGCGGGCGGGGAAAGUAUUAUGUUACGCCGUUCGGAUCUGCACUUCCAGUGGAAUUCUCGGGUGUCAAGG,0.871
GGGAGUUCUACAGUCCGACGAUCACCAUGCAGGUGGGCAUCUUUGGGAAGUGGGGCAAGGGGGGGAUAGGGAGGGGGGUAACACUUUGGGAACAGGUGGUCCCAGGUAGUUUCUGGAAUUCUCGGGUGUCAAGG,1.12

# Repeated from above (series 2):
Sequence,E-score
ATCAATAC,0.287
AATATCAG,0.3
CCATATAG,0.271
CTGTATTA,0.275
ATGCACAT,0.277
TGCATACA,0.397
ACAAATAA,0.372
AACTATAG,0.259
ATAACACA,0.409
